Experimental data gathered from unrelated publications.
± gives the spread as reported.
UniProt P08183, sequence (whole entry, looked up): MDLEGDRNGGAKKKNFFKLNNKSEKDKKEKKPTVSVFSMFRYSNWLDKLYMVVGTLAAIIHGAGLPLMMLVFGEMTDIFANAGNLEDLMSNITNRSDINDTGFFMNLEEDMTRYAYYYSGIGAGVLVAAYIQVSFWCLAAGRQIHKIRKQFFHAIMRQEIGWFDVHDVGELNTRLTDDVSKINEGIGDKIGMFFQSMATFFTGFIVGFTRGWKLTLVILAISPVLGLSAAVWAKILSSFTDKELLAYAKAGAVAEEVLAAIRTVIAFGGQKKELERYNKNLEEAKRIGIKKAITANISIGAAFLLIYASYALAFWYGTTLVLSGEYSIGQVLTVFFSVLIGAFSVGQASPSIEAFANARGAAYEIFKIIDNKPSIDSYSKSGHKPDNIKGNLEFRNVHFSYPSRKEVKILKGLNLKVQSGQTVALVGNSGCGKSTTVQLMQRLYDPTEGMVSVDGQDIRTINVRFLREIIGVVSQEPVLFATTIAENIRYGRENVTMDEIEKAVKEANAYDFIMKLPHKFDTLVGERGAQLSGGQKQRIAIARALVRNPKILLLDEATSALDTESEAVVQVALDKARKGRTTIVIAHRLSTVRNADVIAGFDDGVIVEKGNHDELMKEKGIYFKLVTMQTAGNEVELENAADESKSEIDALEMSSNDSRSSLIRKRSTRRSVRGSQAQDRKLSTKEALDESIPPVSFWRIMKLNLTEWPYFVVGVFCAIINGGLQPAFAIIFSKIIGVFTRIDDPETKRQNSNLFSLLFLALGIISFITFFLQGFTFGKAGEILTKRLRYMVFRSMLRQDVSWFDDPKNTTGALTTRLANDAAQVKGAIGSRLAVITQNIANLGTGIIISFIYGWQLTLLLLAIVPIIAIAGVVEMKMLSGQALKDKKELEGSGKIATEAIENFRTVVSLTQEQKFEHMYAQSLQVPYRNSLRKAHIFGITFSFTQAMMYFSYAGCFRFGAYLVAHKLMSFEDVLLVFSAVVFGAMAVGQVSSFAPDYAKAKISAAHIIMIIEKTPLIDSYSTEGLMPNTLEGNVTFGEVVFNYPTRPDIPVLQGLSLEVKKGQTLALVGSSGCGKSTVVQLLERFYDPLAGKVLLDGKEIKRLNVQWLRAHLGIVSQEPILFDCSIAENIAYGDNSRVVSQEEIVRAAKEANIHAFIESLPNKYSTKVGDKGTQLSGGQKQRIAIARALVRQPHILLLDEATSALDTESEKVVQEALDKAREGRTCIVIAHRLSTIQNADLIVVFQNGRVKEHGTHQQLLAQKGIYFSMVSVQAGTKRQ

COc1cc2c(c(OC)c1OC)-c1c(cc3c(c1OC)OCO3)[C@H](OC(=O)c1ccccc1)[C@@](C)(O)[C@@H](C)C2
IC50 ratio (human recombinant CYP3A4 and CYP3A5; item: 1′-hydroxymidazolam; 15 min, pH 7.4, with: midazolam 5 µM; baseline: CYP3A4 over CYP3A5): 5.7

CCCCc1oc2ccc(NS(C)(=O)=O)cc2c1C(=O)c1ccc(OCCCN(CCCC)CCCC)cc1
ALERT score (H9 human embryonic stem cell aggregates; qRT-PCR; 3D aggregates; 0.2 µM, 5 days, developmental toxicity model; direction not given): 10

CC[C@H]1[C@@H](O)[C@@H]2[C@H](CC[C@]3(C)[C@@H]([C@H](C)CCNC(=O)NS(=O)(=O)c4ccc(C(C)(C)C)cc4)CC[C@@H]23)[C@@]2(C)CC[C@@H](O)C[C@@H]12
AUC(0-t) mean (ABCB1 (Homo sapiens, UniProt P08183); substrate; human, plasma; dose not given, with: quinidine): 386 ng·h/mL

COc1cc2c(c(OC)c1OC)C(=O)c1c(cc(C)c(O)c1OC)C2=O
viability (HK-2 co-cultured with HepaRG; MTT; 16.67 µM, 24 h; baseline: untreated control): 81.2 ± 5.09%

Cc1cc(N)c2c(OCC(C)(C)C(=O)NC(C)C)cccc2n1
mean revertant colonies (Salmonella typhimurium; reverse mutation, plate incorporation; TA100; 1 µg/plate, without S9): 59 colonies/plate

CC[C@H](CO)N(CCN(N=O)[C@H](CC)CO)N=O
revertant colonies per plate (Salmonella typhimurium; mutagenicity, Ames plate incorporation; TA1537; 150 µg/plate, without S9, methanol): 12.7 ± 2

Cc1noc(C)c1Cn1cc(N2C(=O)CN(Cc3cccc(O)c3)C2=O)cn1
aberrant cells without gaps (human blood lymphocytes; 1100 µg/mL, 3 h, with 5% S9): 3.9%

COc1c(O)c(C)cc2c1C(=O)c1c(ccc(O)c1O)C2=O
viability (HK-2 co-cultured with HepaRG; MTT; 266.67 µM, 48 h; baseline: untreated control): 79.3 ± 19.7%

CC(C)(Oc1ccc(Cl)cc1)C(=O)OCCOC(=O)c1cccnc1
inhibition (THP-1; pyroptotic LDH release; 2 µM, 40 min, with: LPS then nigericin): 0.591%

C[C@H]1CN(C2COC2)CCN1c1ccc(Nc2cc(-c3ccnc(N4CCn5c(cc6c5CC(C)(C)C6)C4=O)c3CO)cn(C)c2=O)nc1
remaining compound (human CYP; human liver microsomes; 1 µM, 60 min, pH 7.4, with: 1-aminobenzotriazole 1000 µM, NADPH; baseline: 0 min): 94.9 ± 11.2%

Cc1cc(Nc2ccc(S(F)(F)(F)(F)F)cc2)n2nc(C(C)(F)F)nc2n1
patients with QTcF increase (Plasmodium vivax; 12-lead ECG; malaria patients; oral, 400 mg, increase above 60 ms): 0%

COc1cc2c(c(O)c1OC)C(=O)c1c(cc(C)c(O)c1OC)C2=O
cell viability (HK-2 co-cultured with HepaRG; MTT; 66.67 µM, 48 h; baseline: untreated control): 36.3 ± 4.84%

O=C1Nc2ccc(Cl)cc2[C@@](C#CC2CC2)(C(F)(F)F)O1
CC50 (MT4 uninfected): > 6.33 µM

COc1cc(O)c2c(c1)C(=O)c1cc(C)cc(O)c1C2=O
viability (HK-2 co-cultured with HepaRG; MTT; 133.33 µM, 24 h; baseline: untreated control): 97.1 ± 13%

O=c1[nH]cc(F)c(=O)[nH]1
inhibition (THP-1; pyroptotic LDH release; 2 µM, 40 min, with: LPS then nigericin): 8.59%

N#Cc1ccc(Nc2nc(N)cc(Oc3ccc(-c4ccc(C#N)cc4)c(Cl)c3)n2)cc1
CC50 (MT4 uninfected): > 45 µM

COc1c(O[C@@H]2O[C@H](CO)[C@@H](O)[C@H](O)[C@H]2O)c(C)cc2c1C(=O)c1c(O)cccc1C2=O
cell viability (HK-2 co-cultured with HepaRG; MTT; 16.67 µM, 24 h; baseline: untreated control): 87.3 ± 4.56%

c1csc(CNc2cc[nH]n2)c1
cells with structural aberrations (human peripheral blood lymphocytes, female; 225 µg/mL, 20 h, without S9): 0%

Excerpt of the above:
Cc1noc(C)c1Cn1cc(N2C(=O)CN(Cc3cccc(O)c3)C2=O)cn1
aberrant cells without gaps (human blood lymphocytes; 1100 µg/mL, 3 h, with 5% S9): 3.9%

COc1c(O)c(C)cc2c1C(=O)c1c(ccc(O)c1O)C2=O
viability (HK-2 co-cultured with HepaRG; MTT; 266.67 µM, 48 h; baseline: untreated control): 79.3 ± 19.7%

CC(C)(Oc1ccc(Cl)cc1)C(=O)OCCOC(=O)c1cccnc1
inhibition (THP-1; pyroptotic LDH release; 2 µM, 40 min, with: LPS then nigericin): 0.591%
